Published values gathered from unrelated publications.
± gives the spread as reported.
Cell line: HeLa

SMILES | test | test system | conditions | IC50
C[C@H](NC(=O)CCCCCC1(C)C(/C=C/C=C/C=C2/N(CCCS(=O)(=O)O)c3ccc(S(=O)(=O)O)cc3C2(C)C)=[N+](CCCS(=O)(=O)[O-])c2ccc(S(=O)(=O)O)cc21)C(=O)N[C@@H](CC(=O)Nc1ccc(C(F)(F)C(F)(F)C(F)(F)C(F)(F)C(F)(F)C(F)(F)F)cc1)C(=O)N[C@@H](Cc1ccccc1)C(N)=O (some centres unmarked) | cytotoxicity | serum-free DMEM | 1 h | 77 ± 7 µM
CC1=[N+]2N=C(c3ccccc3)[O][Pd-2]2([Cl])[O+]=C2Oc3ccccc3C=C21 (centres unmarked) | cytotoxicity, MTT | – | 48 h | 9.79 ± 0.8 µM
Oc1c(Br)cc(Br)c2nc3cc(SC(F)(F)F)ccc3nc12 | cytotoxicity, LDH release | – | 24 h, 10% FBS | > 100 µM
CN1C(=O)CCC(N2C(=O)c3cccc(NCCOCCOCCOCCOCCOCCOCCOCCNCCNc4nonc4/C(=N/O)Nc4ccc(F)c(Br)c4)c3C2=O)C1=O (centres unmarked) | cytotoxicity, MTT | – | 48 h | > 40 µM
C=C1CC[C@]2(C(=O)O)CC[C@]3(C)C(=CC[C@@H]4[C@@]5(C)CC[C@H](O)C(C)(C)[C@@H]5CC[C@]43C)[C@@H]2C1 | cell growth or viability, MTT | – | 72 h | 27.8 µM
Oc1c(Br)cc(Br)c2nc3cc(Br)ccc3nc12 | cytotoxicity, LDH release | – | 24 h, 10% FBS | > 100 µM
CCc1ccc(C2=C3C(C)=CC(C)=[N+]3[B-](F)(F)n3c(C)cc(C)c32)cc1 | cell growth or viability, MTT | – | 24 h | > 50 µM
O=C1CCC(N2Cc3c(NC(=O)COCCOCCOCCNCCNc4nonc4/C(=N/O)Nc4ccc(F)c(Br)c4)cccc3C2=O)C(=O)N1 (centres unmarked) | cytotoxicity, MTT | – | 48 h | > 40 µM
CC(=O)Nc1ccc(-c2csc(Nc3cccc(F)c3)n2)cc1 | cell growth or viability, resazurin | – | 72 h | 30 µM
Oc1c(Br)cc(Br)c2nc3cc(F)ccc3nc12 | cytotoxicity, LDH release | – | 24 h, 10% FBS | > 100 µM
OCCOCCOCCOCCOCCOCCOCCOCCNCCNc1nonc1/C(=N/O)Nc1ccc(F)c(Br)c1 | cytotoxicity, MTT | – | 48 h | > 40 µM
CC(=O)[O-].Nc1ccc(C([O-])=NN=Cc2ccc(OCC(=O)Nc3ccc(Cl)cc3)cc2)cc1.O.O.O.[Co+2] | cytotoxicity, MTT | – | 24 h | 19.7 ± 2 µg/mL
Oc1c(Br)cc(Br)c2nc3c(C(F)(F)F)cc(C(F)(F)F)cc3nc12 | cytotoxicity, LDH release | – | 24 h, 10% FBS | > 100 µM
CC(=O)Nc1ccc(-c2csc(Nc3ccc(C)cc3)n2)cc1 | cell growth or viability, resazurin | – | 72 h | 39 µM
CC1(C)CC[C@]2(C(=O)O)CC[C@]3(C)C(=CC[C@@H]4[C@@]5(C)CC[C@H](O)[C@@](C)(C(=O)O)[C@@H]5CC[C@]43C)[C@@H]2C1 | cell growth or viability, MTT | – | 72 h | 43.6 µM
O=C1CCC(N2C(=O)c3cccc(NCCOCCOCCOCCOCCOCCOCCOCCNCCNc4nonc4/C(=N/O)Nc4ccc(F)c(Br)c4)c3C2=O)C(=O)N1 (centres unmarked) | cytotoxicity, MTT | – | 48 h | 37.4 µM
CCCCCCCCCCCCc1ccc(NC(=O)C[C@H](NC(=O)[C@H](C)NC(=O)CCCCCC2(C)C(C=CC=CC=C3N(CCCS(=O)(=O)O)c4ccc(S(=O)(=O)O)cc4C3(C)C)=[N+](CCCS(=O)(=O)[O-])c3ccc(S(=O)(=O)O)cc32)C(=O)N[C@@H](Cc2ccccc2)C(N)=O)cc1 (some centres unmarked) | cytotoxicity | serum-free DMEM | 1 h | 11 ± 3 µM

A few entries again:
SMILES | test | test system | conditions | IC50
CC(=O)Nc1ccc(-c2csc(Nc3cccc(F)c3)n2)cc1 | cell growth or viability, resazurin | – | 72 h | 30 µM
C=C1CC[C@]2(C(=O)O)CC[C@]3(C)C(=CC[C@@H]4[C@@]5(C)CC[C@H](O)C(C)(C)[C@@H]5CC[C@]43C)[C@@H]2C1 | cell growth or viability, MTT | – | 72 h | 27.8 µM
